Published values pooled from the literature.
Compare with care: the assays were run in different laboratories. ± marks the error that the study gave.
KCNQ3/KCNQ2: Voltage-gated potassium channel, KQT; KCNQ2(Kv7.2)/KCNQ3(Kv7.3) (KCNQ3/KCNQ2, Homo sapiens, UniProt O43525+O43526)
lecA: PA-I galactophilic lectin (lecA, Pseudomonas aeruginosa, UniProt Q05097)
KLRK1 with MICA: NKG2-D type II integral membrane protein, with MICA (KLRK1, Homo sapiens, UniProt P26718)
lasR: Transcriptional activator protein LasR (lasR, Pseudomonas aeruginosa, UniProt P25084)

For `C[C@]1(COC(=O)Cc2ccc(O)c(O)c2)[C@H](C(=O)O)N2C(=O)/C(=C/c3ccccn3)[C@H]2S1(=O)=O`, the kinact/KI was 630000 M⁻¹ s⁻¹ (Beta-lactamase (ampC, Pseudomonas aeruginosa, UniProt P24735); enzyme activity, inhibitor, absorbance).
`CCN(Cc1ccccc1)C(=O)CCc1nc(CN2CCN(C(=O)Cc3ccc(OC)c(OC)c3)CC2)no1` has an activation V1/2 of -29.9 ± 1.82 mV (KCNQ3/KCNQ2; potassium current, whole-cell patch clamp; CHO, stable; 1 µM).
`CC(C)C[C@H](NC(=O)[C@@H](N)Cc1ccccc1)C(=O)O` gave a trimer bound of 50 ± 20% (Amyloid-beta precursor protein, Aβ40 (APP, Homo sapiens, UniProt P05067); binding, ion mobility MS, refers to: Aβ trimer; concentration not given).
For `Nc1ccc(C(O)(C(F)(F)F)C(F)(F)F)cc1`, “STD NMR signal” read 0% (Amyloid-beta precursor protein, amyloid-beta 1-40 oligomers (APP, Homo sapiens, UniProt P05067); binding, STD NMR; highest STD).
The remaining activity of `C#CCNC(=O)c1ccc(S(=O)(=O)N[C@@H](CCCCNC(=O)c2cncc(OS(=O)(=O)F)c2)C(=O)N[C@@H](CCCNC(=N)N)C(=O)NC2CCC2)cc1` is reported as about 10% (SIRT5 (Homo sapiens, UniProt Q9NXA8); enzyme activity, inhibitor, jump-dilution; concentration not given, 16 h preincubation, 100-fold dilution; baseline: DMSO).
For `O=[N+]([O-])c1ccc(OP(=O)(O)O)cc1`, the Km was 2.9 µM (Alkaline phosphatase PafA (pafA, Elizabethkingia meningoseptica, UniProt Q9KJX5, T79S); substrate; Chryseobacterium meningosepticum).
With `O=C(O)COc1ccc(Cl)cc1` the koff was 9.5 s⁻¹ (Chloride channel protein (Torpedo marmorata, UniProt P21564, C212S/E166C/K519E); macroscopic current block, inhibitor, inside-out patch clamp; HEK293; -160 mV).
The Emax of `CCCC[C@H](NC(=O)[C@H](Cc1ccccc1)NC(=O)CNC(=O)[C@@H](C)NC(=O)[C@@H](N)Cc1ccc(O)cc1)C(=O)N1CCC[C@H]1C(=O)N[C@@H](CC(C)C)C(=O)N[C@@H](CO[C@@H]1O[C@H](CO)[C@@H](O)[C@H](O)[C@H]1O)C(=O)N[C@@H](Cc1c[nH]c2ccccc12)C(=O)NCc1cc(C(F)(F)F)cc(C(F)(F)F)c1` is reported as 100% (Oprd1 (Mus musculus, UniProt P32300); smooth muscle contraction inhibition, agonist; mouse vas deferens; baseline: DPDPE).
`COCCCN1CCc2c(Cc3ccc(Cl)cc3)[nH]c3c(OC(F)F)ccc(c23)C1=O` gave a selectivity ratio of 229 (PDE4D (Homo sapiens, UniProt Q08499); enzyme activity, inhibitor; baseline: PDE4D2 IC50 over PDE5A1 IC50).
`COc1ccc(NC(=O)Cn2c(=O)c3ccccc3n(CC(=O)Nc3cc([125I])c(OC)cc3OC)c2=O)cc1` has a kidney binding of 104 PSL/mm² (Sphingosine 1-phosphate receptor 2 (Rattus norvegicus, UniProt P47752); in vitro autoradiography; Sprague-Dawley rat, STZ diabetic, kidney sections; dose not given).
For `CC[C@H](C)[C@H](NC(=O)[C@H](Cc1c[nH]cn1)NC(=O)[C@H](CCCCNC(=O)[C@@H](NC(=O)[C@H](CCCCN)NC(=O)CSC[C@H](NC(=O)[C@H](Cc1ccccc1)NC(=O)[C@H](CCCCNC(=O)[C@H](CC(C)C)NC(=O)[C@@H]1CCCN1C(=O)[C@H](CCCCN)NC(=O)c1ccc(O[C@@H]2O[C@H](CO)[C@H](O)[C@H](O)[C@H]2O)cc1)NC(=O)[C@H](CC(C)C)NC(=O)[C@@H]1CCCN1C(=O)[C@H](CCCCN)NC(=O)c1ccc(O[C@@H]2O[C@H](CO)[C@H](O)[C@H](O)[C@H]2O)cc1)C(N)=O)[C@@H](C)CC)NC(=O)[C@@H](NC(=O)[C@H](CCCCN)NC(=O)CSC[C@H](NC(=O)[C@H](Cc1ccccc1)NC(=O)[C@H](CCCCNC(=O)[C@H](CC(C)C)NC(=O)[C@@H]1CCCN1C(=O)[C@H](CCCCN)NC(=O)c1ccc(O[C@@H]2O[C@H](CO)[C@H](O)[C@H](O)[C@H]2O)cc1)NC(=O)[C@H](CC(C)C)NC(=O)[C@@H]1CCCN1C(=O)[C@H](CCCCN)NC(=O)c1ccc(O[C@@H]2O[C@H](CO)[C@H](O)[C@H](O)[C@H]2O)cc1)C(N)=O)[C@@H](C)CC)C(N)=O`, “relative potency per galactoside” read 32 (lecA; binding, isothermal titration calorimetry; divided by galactoside copies; baseline: monovalent galactoside KD over ligand KD).
`CC(=O)N[C@@H](Cc1c[nH]c2ccccc12)C(=O)N[C@@H](CCC(=O)O)C(=O)N[C@@H](Cc1c[nH]cn1)C(=O)N[C@@H](CC(=O)O)C(=O)Nc1ccc2c(C)cc(=O)oc2c1` gave a Vmax of 209 ± 17.5 RFU/min (Caspase-6 (CASP6, Homo sapiens, UniProt P55212); substrate cleavage, substrate, fluorogenic AMC release; enzyme 0.25 activity units/µL).
`Cn1cc(-c2cccc(CN3CCC4(CC3)COc3c4ccc4c3CN([C@H]3CCC(=O)NC3=O)C4=O)c2)cn1` gave a degradation of 65% (Ikzf2/Crbn (Mus musculus, UniProt P81183+Q8C7D2, I391V); mouse Crbn I391V, thymus; oral, 30 mg/kg single dose, 6 h).
For `NCC1OC(OC(CO)C2CC(O)C(n3ccc(=O)[nH]c3=O)O2)C(O)C1O` (stereo not shown), the binding stoichiometry was 0.44 ± 0.02 (mraY (Aquifex aeolicus, UniProt O66465); isothermal titration calorimetry; concentration not given, wild type, added: Mg2+).
`COP(=O)(O)Oc1ccc([N+](=O)[O-])cc1` — result for “relative catalytic efficiency”: 150 (Alkaline phosphatase PafA (pafA, Elizabethkingia meningoseptica, UniProt Q9KJX5, N100A); Chryseobacterium meningosepticum; pH 8.0; baseline: wild type over mutant kcat/KM).
`CC[C@H](C)[C@H](NC(=O)[C@H](Cc1c[nH]cn1)NC(=O)[C@H](CCCCNC(=O)[C@@H](NC(=O)[C@H](CCCCN)NC(=O)[C@H](Cc1ccccc1)NC(=O)[C@H](CCCCNC(=O)[C@H](CC(C)C)NC(=O)[C@@H]1CCCN1C(=O)[C@H](CCCCN)NC(=O)CCS[C@@H]1O[C@H](CO)[C@H](O)[C@H](O)[C@H]1O)NC(=O)[C@H](CC(C)C)NC(=O)[C@@H]1CCCN1C(=O)[C@H](CCCCN)NC(=O)CCS[C@@H]1O[C@H](CO)[C@H](O)[C@H](O)[C@H]1O)[C@@H](C)CC)NC(=O)[C@@H](NC(=O)[C@H](CCCCN)NC(=O)[C@H](Cc1ccccc1)NC(=O)[C@H](CCCCNC(=O)[C@H](CC(C)C)NC(=O)[C@@H]1CCCN1C(=O)[C@H](CCCCN)NC(=O)CCS[C@@H]1O[C@H](CO)[C@H](O)[C@H](O)[C@H]1O)NC(=O)[C@H](CC(C)C)NC(=O)[C@@H]1CCCN1C(=O)[C@H](CCCCN)NC(=O)CCS[C@@H]1O[C@H](CO)[C@H](O)[C@H](O)[C@H]1O)[C@@H](C)CC)C(N)=O` has a ΔG of -8.8 ± 0.2 kcal/mol (lecA; isothermal titration calorimetry; pH 7.5, 25 °C, added: 25 mM CaCl2).
`CN(C)C(=O)[C@H]1NC(=O)c2cnccc2-c2ccc(cc2)C(F)(F)CCCC(F)(F)c2cccc1c2` gave a maximum inhibition of 99% (KLRK1 with MICA; ligand binding, inhibitor, TR-FRET; HEK293 expressing NKG2D and DAP10; added: MICA-Alexa647; baseline: positive control).
Under phosphatase activity, `O=C(O)c1ccccc1-c1c2ccc(=O)c([As]3SCCS3)c-2oc2c([As]3SCCS3)c(O)ccc12` is recorded as “no effect” (Ptpn11 (Mus musculus, UniProt P35235, C333P); E. coli lysate; up to 25 µM, C333P mutant, added: pNPP 10 mM; baseline: untreated).
`CN(C)C(=O)[C@@H](NC(=O)c1cc(-c2ccnn2C)ccc1-c1ccc(C(F)(F)F)cc1)c1cccc(C(F)(F)F)c1` — result for “lipophilic ligand efficiency”: 2.9 (KLRK1 with MICA; cellular TR-FRET binding; pIC50 minus ChromLogD).
`C[C@@]1(O)CC[C@H]2[C@H](CC[C@@H]3[C@@H]2CC[C@]2(C)[C@@H](C(=O)Cn4cccn4)CC[C@@H]32)C1` gave a PKA activation of 92.3 ± 11.7% (Membrane progesterone receptor epsilon (Paqr9, Mus musculus, UniProt Q6TCG2); pPKA/PKA immunoblot; MDA-MB-231 expressing Paqr9-GFP; 3 nM, 20 min; baseline: control).
With `CCCCCCc1cn(CC(=O)N[C@H]2CCOC2=O)nn1` the activation was 39% (lasR; reporter gene, agonist; Escherichia coli, DH5α pJN105L/pSC11; 100 µM; baseline: OdDHL at same concentration).
The kon of `CC[C@H](C)[C@H](NC(C)=O)C(=O)N[C@H]1CSSC[C@@H](C(=O)N[C@H](C(N)=O)[C@@H](C)O)NC(=O)[C@H](CCCNC(=N)N)NC(=O)[C@H](Cc2c[nH]cn2)NC(=O)[C@H](C)NC(=O)CNC(=O)[C@H](Cc2c[nH]c3ccccc23)NC(=O)[C@H](CC(=O)O)NC(=O)[C@H](CCC(N)=O)NC(=O)[C@H](Cc2cc3cccc4ccc5cccc2c5c43)NC(=O)[C@H](C(C)C)NC1=O` is reported as 760000 ± 130000 M⁻¹ s⁻¹ (Complement C3, C3b fragment (Homo sapiens, UniProt P01024); pH 7.4).
`CCCCC/C=C\C/C=C\C/C=C\C/C=C\CCCC(=O)NC(CO)C(=O)O` (stereo in doubt) — result for “maximal conductance increase”: 20 ± 4% (KCNQ3/KCNQ2; two-electrode voltage clamp; Xenopus oocytes; 1 µM).
With `CCCCc1cn(-c2ccc(C(=O)N[C@H]3CCOC3=O)cc2)nn1` the activation was 0% (lasR; reporter gene, agonist; Escherichia coli, DH5α pJN105L/pSC11; 100 µM; baseline: OdDHL at same concentration).
`C=C(NC(=O)C(=C)NC(=O)c1csc(C2=NC3c4csc(n4)C4NC(=O)c5csc(n5)C(C(C)(O)C(C)O)NC(=O)C5CSC(=N5)C(=CC)NC(=O)C(C(C)O)NC(=O)c5csc(n5)C3(CC2)NC(=O)C(C)NC(=O)C(=C)NC(=O)C(C(C)CC)NC2C=Cc3c(C(C)O)cc(nc3C2O)C(=O)OC4C)n1)C(N)=O` (stereo not shown): “IC50 fold change” at most 6 fold (PSMB5 (Homo sapiens, UniProt P28074); chymotrypsin-like activity, inhibitor; added: Suc-LLVY-AMC; baseline: thiostrepton A).

Excerpt of the above:
`COP(=O)(O)Oc1ccc([N+](=O)[O-])cc1` — result for “relative catalytic efficiency”: 150 (Alkaline phosphatase PafA (pafA, Elizabethkingia meningoseptica, UniProt Q9KJX5, N100A); Chryseobacterium meningosepticum; pH 8.0; baseline: wild type over mutant kcat/KM).
`C[C@@]1(O)CC[C@H]2[C@H](CC[C@@H]3[C@@H]2CC[C@]2(C)[C@@H](C(=O)Cn4cccn4)CC[C@@H]32)C1` gave a PKA activation of 92.3 ± 11.7% (Membrane progesterone receptor epsilon (Paqr9, Mus musculus, UniProt Q6TCG2); pPKA/PKA immunoblot; MDA-MB-231 expressing Paqr9-GFP; 3 nM, 20 min; baseline: control).
`CCCCC/C=C\C/C=C\C/C=C\C/C=C\CCCC(=O)NC(CO)C(=O)O` (stereo in doubt) — result for “maximal conductance increase”: 20 ± 4% (KCNQ3/KCNQ2; two-electrode voltage clamp; Xenopus oocytes; 1 µM).
`CCN(Cc1ccccc1)C(=O)CCc1nc(CN2CCN(C(=O)Cc3ccc(OC)c(OC)c3)CC2)no1` has an activation V1/2 of -29.9 ± 1.82 mV (KCNQ3/KCNQ2; potassium current, whole-cell patch clamp; CHO, stable; 1 µM).
